{"data": "Experimental data gathered from unrelated publications", "note": "Every numbered part comes from another study and shows a few of its results, in no order. Substitutions count along the parent as printed."}
{"data": "Series 1", "target": "Prothrombin, mature alpha-thrombin (F2, Homo sapiens, UniProt P00734)", "method": "aptamer microarray, sandwich", "form": "DNA with 2'F-ANA", "sample": "in vitro", "tested at": "200 nM", "notes": "whole 15-mer aptamer, many near background", "together with": "Cy3 exosite-II aptamer, 400 nM", "direction": "higher = stronger binding", "oligonucleotide": "GGTTGGTGTGGTTGG"}
{"Modification": "2'F-ANA at 2 6 7 8 15", "mean fluorescence intensity [a.u.]": 454}
{"Modification": "2'F-ANA at 1 2 7 8 9 10 14 15", "mean fluorescence intensity [a.u.]": 48}
{"Modification": "2'F-ANA at 3 4 5 6 7 8 12 15", "mean fluorescence intensity [a.u.]": 254}
{"Modification": "2'F-ANA at 2 3 4 5 6 8 9 10 11 15", "mean fluorescence intensity [a.u.]": 91.6}
{"Modification": "2'F-ANA at 4 7 8 9 11 13 14", "mean fluorescence intensity [a.u.]": 83.6}
{"Modification": "2'F-ANA at 2 4 7 8 10 13 15", "mean fluorescence intensity [a.u.]": 79.6}
{"Modification": "2'F-ANA at 1 3 6 7 8 10 12 13 14 15", "mean fluorescence intensity [a.u.]": 66}
{"Modification": "2'F-ANA at 2 3 7 11 12 13 14", "mean fluorescence intensity [a.u.]": 448}
{"data": "Series 2", "target": "CCNB2, cyclin fold, Cln2 fusion (human)", "method": "yeast growth competition, sequencing", "sample": "yeast", "notes": "weak parent motif", "relative to": "not given", "direction": "higher = stronger binding", "starting sequence": "ORC1 docking peptide (human); PRARKRLELGNLG"}
{"Variant": "L7V", "normalised enrichment score": 0.0772}
{"Variant": "R6I", "normalised enrichment score": 0.784}
{"Variant": "N11V", "normalised enrichment score": 0.608}
{"Variant": "R4Q", "normalised enrichment score": 0.00228}
{"Variant": "L9R", "normalised enrichment score": 0.883}
{"Variant": "G13Q", "normalised enrichment score": -0.254}
{"data": "Series 3", "target": "Histone acetyltransferase KAT6A, winged helix 1, GST fusion (KAT6A, Homo sapiens, UniProt Q92794, residues 1-85)", "method": "protein binding microarray", "form": "double-stranded DNA, one strand shown", "sample": "in vitro", "tested at": "not given", "notes": "8-mer, flanks averaged, mean of 2 arrays, mostly near background", "relative to": "not given", "direction": "higher = stronger binding", "Construct (chain)": "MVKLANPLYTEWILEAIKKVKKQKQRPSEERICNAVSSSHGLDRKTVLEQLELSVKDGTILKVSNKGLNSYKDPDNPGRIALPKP"}
{"Oligonucleotide": "AATACTGA", "E-score": -0.0775}
{"Oligonucleotide": "ATGGGGAA", "E-score": -0.0962}
{"Oligonucleotide": "AGATCCCA", "E-score": -0.265}
{"Oligonucleotide": "CAGGCTCA", "E-score": -0.2}
{"Oligonucleotide": "GGCTATGA", "E-score": 0.01}
{"Oligonucleotide": "AGATTATA", "E-score": -0.0156}
{"Oligonucleotide": "GACGGCGA", "E-score": 0.355}
{"Oligonucleotide": "AAGTGGCC", "E-score": -0.168}
{"Oligonucleotide": "CCGGCGTC", "E-score": 0.36}
{"data": "Single results of other studies"}
{"Substance": "PhoQ, residues 284 288 289 292 302 303 TTSMTC", "target": "PhoP, residues 12 14 15 18 19 NYFTV (Escherichia coli, UniProt P23836)", "assay": "Sort-seq, refers to: YFP reporter", "test system": "E. coli", "conditions": "PhoQ-PhoP variant library, together with: 10 µM Mg2+", "how to read": "relative to: high Mg2+ state, higher = stronger signaling", "endpoint": "fold induction", "result": 5.57}
{"note": "Some of these lines once more (series 3):"}
{"Oligonucleotide": "CCGGCGTC", "E-score": 0.36}
{"Oligonucleotide": "ATGGGGAA", "E-score": -0.0962}
{"Oligonucleotide": "AATACTGA", "E-score": -0.0775}
